Results of several laboratories.
Each line is one published result; not all experiments were run side by side. Several values in a cell are separate wells, animals, samples, runs or records. Numbers after ± are the reported error. Converted amounts (≈) assume the structure as drawn.

CC(C)C[C@H](NC(=O)[C@H](Cc1ccc(O)cc1)NC(=O)[C@@H](CCCNC(=N)N)NC(=O)[C@@H](CO)NC(=O)[C@H](Cc1ccccc1)NC(=O)[C@H](CC1CCCCC1)NC(=O)[C@H](CC(=O)O)NC(=O)CN1CCN(CC(=O)O)CCN(CC(=O)O)CCN(CC(=O)O)CC1)C(=O)N[C@@H](Cc1c[nH]c2ccccc12)C(=O)N[C@@H](CO)C(=O)O [copper-64 labelled] — activity concentration (human, urinary bladder; concentration not given, 3 h): 28600 Bq/mL and 92500 Bq/mL and 40300 Bq/mL and 87000 Bq/mL and 67300 Bq/mL and 56400 Bq/mL
CCCC[C@H](NC(=O)COCCOCCNC(=O)CN1CCN(CC(=O)O)CCN(CC(=O)O)CC1)C(=O)N[C@H]1CC(=O)NCCCC[C@@H](C(N)=O)NC(=O)[C@H](Cc2c[nH]c3ccccc23)NC(=O)[C@H](CCCNC(=N)N)NC(=O)[C@@H](Cc2ccccc2)NC(=O)[C@H](Cc2c[nH]cn2)NC1=O [technetium-99m labelled] — tissue uptake (C57 mouse, intestine; intravenous, 0.037 MBq, 4 h): 5.5 ± 0.65 %ID
C[C@@H](O)[C@@H]1NC(=O)[C@H](CCCCN)NC(=O)[C@@H](Cc2c[nH]c3ccccc23)NC(=O)[C@H](Cc2ccc(O)cc2)NC(=O)[C@@H](NC(=O)[C@@H](Cc2ccccc2)NC(=O)CN2CCN(CC(=O)O)CCN(CC(=O)O)CCN(CC(=O)O)CC2)CSSC[C@@H](C(=O)N[C@H](CO)[C@@H](C)O)NC1=O [gallium-67 labelled] — tissue uptake (gamma counting; ICR mice, male, bone; iv, 11 kBq/mouse, 1 h): 2.48 ± 0.59 %ID/g
CCCC[C@H](NC(=O)CCCCCCCNC(=O)CN1CCN(CC(=O)O)CCN(CC(=O)O)CC1)C(=O)N[C@H]1CC(=O)NCCCC[C@@H](C(N)=O)NC(=O)[C@H](Cc2c[nH]c3ccccc23)NC(=O)[C@H](CCCNC(=N)N)NC(=O)[C@@H](Cc2ccccc2)NC(=O)[C@H](Cc2c[nH]cn2)NC1=O [technetium-99m labelled] — tissue uptake (C57 mouse, heart; intravenous, 0.037 MBq, 4 h): 0.04 ± 0.02 %ID/g
CO[C@@H]1[C@@H](OC)[C@H]2O[C@H]3[C@H](OC)[C@@H](OC)[C@@H](O[C@H]4[C@H](OC)[C@@H](OC)[C@@H](O[C@H]5[C@H](OC)[C@@H](OC)[C@@H](O[C@H]6[C@H](OC)[C@@H](OC)[C@@H](O[C@H]7[C@H](OC)[C@@H](OC)[C@@H](O[C@H]8[C@H](OC)[C@@H](OC)[C@@H](O[C@@H]1[C@@H](Cn1cc(CCCC(=O)N[C@H]9CCOC9=O)nn1)O2)O[C@@H]8Cn1cc(CCCC(=O)N[C@H]2CCOC2=O)nn1)O[C@@H]7Cn1cc(CCCC(=O)N[C@H]2CCOC2=O)nn1)O[C@@H]6Cn1cc(CCCC(=O)N[C@H]2CCOC2=O)nn1)O[C@@H]5Cn1cc(CCCC(=O)N[C@H]2CCOC2=O)nn1)O[C@@H]4Cn1cc(CCCC(=O)N[C@H]2CCOC2=O)nn1)O[C@@H]3Cn1cc(CCCC(=O)N[C@H]2CCOC2=O)nn1 — solubility (NMR; water; 20 °C): 8.7 mM (≈ 25 mg/mL)
CC(C)C[C@H](NC(=O)[C@@H](CCCCNC(=O)[C@@H](Cc1ccccc1)NC(=O)CCCCCNC(=O)CN1CCN(CC(=O)O)CCN(CC(=O)O)CCN(CC(=O)O)CC1)NC(=O)[C@H](Cc1ccc(O)cc1)NC(=O)[C@H](CO)NC(=O)[C@H](Cc1c[nH]c2ccccc12)NC(=O)[C@H](Cc1c[nH]cn1)NC(=O)[C@@H]1CCC(=O)N1)C(=O)N[C@@H](CCCNC(=N)N)C(=O)N1CCC[C@H]1C(=O)NCC(N)=O [indium-111 labelled] — tissue uptake (female athymic nude mice, blood; intravenous, 0.037 MBq, 4 h): 0.01 ± 0.01 %ID/g
O=C(CCCc1cn(C[C@H]2O[C@@H]3O[C@H]4[C@H](O)[C@@H](O)[C@@H](O[C@H]5[C@H](O)[C@@H](O)[C@@H](O[C@H]6[C@H](O)[C@@H](O)[C@@H](O[C@H]7[C@H](O)[C@@H](O)[C@@H](O[C@H]8[C@H](O)[C@@H](O)[C@@H](O[C@H]2[C@H](O)[C@H]3O)O[C@@H]8Cn2cc(CCCC(=O)N[C@H]3CCOC3=O)nn2)O[C@@H]7Cn2cc(CCCC(=O)N[C@H]3CCOC3=O)nn2)O[C@@H]6Cn2cc(CCCC(=O)N[C@H]3CCOC3=O)nn2)O[C@@H]5Cn2cc(CCCC(=O)N[C@H]3CCOC3=O)nn2)O[C@@H]4Cn2cc(CCCC(=O)N[C@H]3CCOC3=O)nn2)nn1)N[C@H]1CCOC1=O — solubility (NMR; water; 20 °C): 2.6 mM (≈ 5.97 mg/mL)
CC(C)C[C@@H](NC(=O)[C@@H](CC(C)C)NC(=O)[C@@H](CC(=O)O)NC(=O)[C@@H](CC(C)C)NC(=O)[C@@H](CC(C)C)NC(=O)[C@@H](CC(C)C)NC(=O)[C@H](NC(=O)[C@@H](CC(=O)O)NC(=O)[C@H](NC(=O)[C@H]1CCCN1C(=O)[C@@H](Cc1ccccc1)NC(=O)[C@@H](CC(C)C)NC(=O)[C@@H](CC(C)C)NC(=O)[C@@H](CC(=O)O)NC(=O)[C@@H](CC(C)C)NC(=O)[C@@H](Cc1ccc(O)cc1)NC(=O)[C@@H](C)NC(=O)[C@@H](CCCNC(=N)N)NC(=O)[C@@H](Cc1c[nH]c2ccccc12)NC(=O)[C@H]1CCCN1C(=O)[C@@H](CC(N)=O)NC(=O)[C@@H](CCC(N)=O)NC(=O)[C@@H](CC(=O)O)NC(=O)[C@@H](CC(=O)O)NC(=O)[C@@H](CSC1CC(=O)N(CCNC(=O)CN2CCN(CC(=O)O)CCN(CC(=O)O)CC2)C1=O)NC(=O)[C@@H](C)N)[C@H](C)O)[C@H](C)O)C(=O)N[C@H](Cc1c[nH]c2ccccc12)C(=O)O (some centres unmarked) [fluorine-18 labelled] — blood uptake (male nude mouse, U-87 MG xenograft, blood; intravenous, 6 h): 10.7 %ID/g

Excerpt of the above:
CC(C)C[C@H](NC(=O)[C@@H](CCCCNC(=O)[C@@H](Cc1ccccc1)NC(=O)CCCCCNC(=O)CN1CCN(CC(=O)O)CCN(CC(=O)O)CCN(CC(=O)O)CC1)NC(=O)[C@H](Cc1ccc(O)cc1)NC(=O)[C@H](CO)NC(=O)[C@H](Cc1c[nH]c2ccccc12)NC(=O)[C@H](Cc1c[nH]cn1)NC(=O)[C@@H]1CCC(=O)N1)C(=O)N[C@@H](CCCNC(=N)N)C(=O)N1CCC[C@H]1C(=O)NCC(N)=O [indium-111 labelled] — tissue uptake (female athymic nude mice, blood; intravenous, 0.037 MBq, 4 h): 0.01 ± 0.01 %ID/g
